Measured values collected from several papers.
Every numbered part comes from another study and shows a few of its results, in no order. Changes are numbered by the printed parent chain.

Study 1
Target: Protein max, full length (MAX, Homo sapiens, UniProt P61244-2, residues 1-151)
Method: protein-binding microarray
Form: double-stranded DNA, one strand shown
Medium: in vitro
Concentration: not given
Setting: k-mer, scored over probes, only values ≥0.25
Direction: higher = stronger binding
Oligonucleotide	E-score
GCCCACAC	0.288
ACCCCGCC	0.279
ACTGCGTG	0.276
GGGGAGGA	0.261
GCACATGA	0.454
ACATCATG	0.254
ACATGACT	0.341
CCGCCTGA	0.251
AAGCCATG	0.291
TGCTCACA	0.287
CACCTGCA	0.352
ACGTGCGC	0.466
ATGGGGCA	0.262
CAATCACA	0.273
AGGTGACC	0.276
AACGTGAA	0.253

Study 2
Target: CCNF, cyclin fold, Cln2 fusion (human)
Method: yeast growth competition, sequencing
Medium: yeast
Setting: strong parent motif
Reference: not given
Direction: higher = stronger binding
Starting sequence: RB1 docking peptide (human); PKPLKKLRFDIEG
Substitution	normalised enrichment score
PKPLKKLRDDIEG [F9D]	0.797
NKPLKKLRFDIEG [P1N]	0.166
PKPLKKWRFDIEG [L7W]	1.72
PKPWKKLRFDIEG [L4W]	1.89
PKLLKKLRFDIEG [P3L]	1.82
PKPLKKYRFDIEG [L7Y]	-0.0235
PKPLKKLRFDCEG [I11C]	0.714
PKPLKKLRFDVEG [I11V]	1.46
PKPLKKLREDIEG [F9E]	0.275
PKPPKKLRFDIEG [L4P]	1.31
PKPLKKLRWDIEG [F9W]	0.944
PKPIKKLRFDIEG [L4I]	4.08
PKPLKKHRFDIEG [L7H]	0.892
PKPLKKLRFDIEP [G13P]	2.21
PKPLKKLRFWIEG [D10W]	2.59
WKPLKKLRFDIEG [P1W]	2.02
PKPLKKLRFDIGG [E12G]	1.62
PKPLKMLRFDIEG [K6M]	1.1

Study 3
Target: Prothrombin, mature alpha-thrombin (F2, Homo sapiens, UniProt P00734)
Method: aptamer microarray, sandwich
Form: DNA with 2'F-ANA
Medium: in vitro
Concentration: 200 nM
Setting: whole 15-mer aptamer, many near background
With: Cy3 exosite-II aptamer, 400 nM
Direction: higher = stronger binding
Oligonucleotide: GGTTGGTGTGGTTGG
Modification	mean fluorescence intensity [a.u.]
2'F-ANA at 2 4 6 8 9 10 12 13 15	78.7
2'F-ANA at 1 3 5 9 12 15	128
2'F-ANA at 1 3 4 5 8 9 10 11 13	59.5
2'F-ANA at 1 2 3 5 7 8 9 11 13 14 15	98.6
2'F-ANA at 2 3 4 6 7 8 9 10 13 14 15	145
2'F-ANA at 1 3 5 7 8 12 13 14 15	51.2
2'F-ANA at 2 4 6 10 13 14	121
2'F-ANA at 1 5 6 7 11 13 15	48.3
2'F-ANA at 1 2 3 4 8 11	190
2'F-ANA at 2 4 7 8 10 11 13 14	60.2
2'F-ANA at 2 3 5 7 8 10 11 12	59.4
2'F-ANA at 2 5 6 7 9 10 11 13 15	44.3
2'F-ANA at 5 7 8 9 10 11	61.7
2'F-ANA at 1 2 4 9 10 11 13 14	54
2'F-ANA at 1 3 7 9 13 14 15	128
2'F-ANA at 3 5 10 12	67.6
2'F-ANA at 1 6 7 9 11 15	121
2'F-ANA at 1 4 5 8 9 11 12 13 14 15	52.4
2'F-ANA at 1 2 3 5 6 11 14	47.2
2'F-ANA at 2 3 4 6 10 11	229
2'F-ANA at 1 4 5 7 13 15	48.2
2'F-ANA at 2 4 5 6 9 10 13 15	192
2'F-ANA at 2 3 4 6 8 9 11 12 14	257
2'F-ANA at 2 3 4 5 7 8 10	56.5
2'F-ANA at 2 4 5 6 8 10 15	48.8

Study 4
Target: Phosphate system positive regulatory protein PHO4, full length, GST-tagged (PHO4, Saccharomyces cerevisiae, UniProt P07270, residues 1-312)
Method: competition protein-binding microarray
Form: double-stranded DNA, one strand shown
Medium: in vitro
Concentration: 2 µM
Setting: whole 60-bp probe, lowest competitor level
With: Cbf1 competitor, 0.05 µM
Direction: higher = stronger binding
All sequences stand within: … GTCTTGATTCGCTTGACGCTGCTG
Residues (chain): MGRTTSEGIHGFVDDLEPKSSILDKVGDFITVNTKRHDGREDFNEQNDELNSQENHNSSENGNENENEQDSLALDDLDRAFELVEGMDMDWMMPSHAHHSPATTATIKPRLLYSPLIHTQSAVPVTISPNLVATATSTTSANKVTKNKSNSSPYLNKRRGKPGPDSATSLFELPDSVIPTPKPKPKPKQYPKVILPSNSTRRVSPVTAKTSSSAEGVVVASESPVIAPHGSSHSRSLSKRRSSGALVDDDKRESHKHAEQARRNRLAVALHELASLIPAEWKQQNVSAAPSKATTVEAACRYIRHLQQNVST
Oligonucleotide	fluorescence intensity [a.u.]
AAAGCGGTAATTTGACCAGTGGGTGCAGATATCTAT	3790
AGCCTCGGAAGTCCAAGCGTGTCCTCCTCGAAAAAG	6370
CTTCTGTAAATTTGTTTAGTGGGTGGACGCGCCCCG	3990
GTCTTGTCTCATTGCTTAGTGGGTGTCCCCACTTCA	5010
ACAAATACGAGCTTGCGCGTGTAGGTTAATCAGTTC	7680
CGGGGTTAAGTTTGAAATGTGGGTGGCTTGCAGCAG	5800
GCCCATCGAAATTAGCACGATAGAGGAAGAGCAATC	5800
AAGAAGCCATTAGAGCTCGTGCCAGGGAACTAGAAG	12100
CCGCTCGCCCATTCGCACATGGCTTCTCAAGGATCG	9120
CTAACGAAGGTTTTTCACGTGACTTACAAGCCAAGT	10300
CTGCGCCCGCCGTAGACCGTGACAAGGAAGCTCACC	5850
GTCTTGTCTCATTTTCACGTGTACTTCCCCACTTCA	11700
AAATTACTAAGTTGTTAAGTGGGTGACGCCGTATGA	3670
CTTTCCCGATCTTGCTGCGTGGGTGTAGCACATTTG	8160
AAAGCGGTAATTTGATGAGTGGGTGCAGATATCTAT	4700
CTTCTGTAAATTTGCGGGGTGGGTGGACGCGCCCCG	5590
TGCGCAACAACTTGTGATGTGGGTGTATGTCTAGAA	5950
AACGACTTCGTCAAGTCCGTGACGGAGTCGGGGTAC	4120
CTTTCCCGATCTTGTGGTGTGGGTGTAGCACATTTG	5970
CAAGGTTTTCTTTGCCACGCTCAAGCATTCATCGTT	6530

Study 5
Target: Histone acetyltransferase KAT6A, winged helix 1, GST fusion (KAT6A, Homo sapiens, UniProt Q92794, residues 1-85)
Method: protein binding microarray
Form: double-stranded DNA, one strand shown
Medium: in vitro
Concentration: not given
Setting: 8-mer, flanks averaged, mean of 2 arrays, mostly near background
Reference: not given
Direction: higher = stronger binding
Residues (chain): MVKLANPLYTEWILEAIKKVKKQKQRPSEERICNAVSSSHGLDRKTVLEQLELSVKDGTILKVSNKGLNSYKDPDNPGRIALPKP
Oligonucleotide	E-score
ATCGCCTG	-0.0628
ATCGGGAG	0.0637
GCCTGGTA	-0.297
TACACCTA	-0.147
AGATCTTC	-0.122
CATGCTTA	0.0399
TACCGGCA	0.345
ATGTCCCG	0.21
CGATTGCA	-0.114
CAGAGGCA	-0.233
TTGTCAAA	-0.161
GCTGTGAC	0.085
ACGAATGC	-0.0323
CTTGCATA	-0.163
AGACCGAA	-0.0729
ACCGTTAG	0.103
CGTGGACC	0.195
ATGGGTAC	-0.143
AAGGTAAA	-0.151
CAAGCACG	0.0516
GCTACGAC	0.155
CCTATTAG	-0.0335
AATCGACA	-0.121

Study 6
Target: ABI1, truncated, D143A, DHFR fusion (Arabidopsis thaliana)
Method: DHFR PCA, deep sequencing
Medium: yeast
Setting: methotrexate growth selection, single substitutions
With: (+)-ABA 0 µM
Reference: wild-type fitted maximum
Direction: higher = stronger binding
Starting sequence: PYL1, truncated, DHFR fusion (Arabidopsis thaliana); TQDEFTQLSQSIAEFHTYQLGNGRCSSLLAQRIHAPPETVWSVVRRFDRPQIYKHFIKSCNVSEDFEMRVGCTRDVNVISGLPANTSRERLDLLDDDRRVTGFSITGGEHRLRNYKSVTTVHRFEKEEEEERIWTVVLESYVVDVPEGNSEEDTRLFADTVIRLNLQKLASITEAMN; partner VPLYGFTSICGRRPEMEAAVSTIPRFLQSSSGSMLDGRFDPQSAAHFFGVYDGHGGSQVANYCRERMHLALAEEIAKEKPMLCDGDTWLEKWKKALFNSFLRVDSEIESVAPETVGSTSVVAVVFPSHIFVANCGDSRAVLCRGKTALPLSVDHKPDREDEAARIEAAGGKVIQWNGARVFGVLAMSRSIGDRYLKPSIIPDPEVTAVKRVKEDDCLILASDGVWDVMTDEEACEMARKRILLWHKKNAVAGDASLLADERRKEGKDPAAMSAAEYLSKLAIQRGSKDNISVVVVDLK
Substitution	relative binding score [%]
L138S	3.38
H16S	-1
Q19S	25.8
E128T	25.7
E127L	27.3
N85S	50.6
T119L	-5.92
I52V	43.2
R74Q	8.14
N77T	62.5
W41R	5.74
S140N	-8.23
D95L	-9.03
I33Y	0.568
M176P	0.579
N149W	12
S63Q	15.6
W41M	0.0958
I105C	2.12
Q7W	25
I133M	26.4
Q7T	21.2
I172V	47.2
D92R	9.25
D48S	-1.82

A few entries again (study 6):
Substitution	relative binding score [%]
D95L	-9.03
N149W	12
T119L	-5.92
E127L	27.3
S140N	-8.23
S63Q	15.6
D92R	9.25
